Published values pooled from the literature.
Each numbered part is a random draw from the data of one study; scales do not carry over between parts. Positions count from the first letter of the parent shown.

Study 1 — method: protein binding microarray; form: double-stranded DNA, one strand shown; medium: in vitro; tested at: not given; baseline: not given; direction: higher = stronger binding
Target: Histone acetyltransferase KAT6A, both winged helices, GST fusion (KAT6A, Homo sapiens, UniProt Q92794, residues 1-181)
Setting: 8-mer, flanks averaged, mean of 2 arrays, mostly near background
Construct (chain): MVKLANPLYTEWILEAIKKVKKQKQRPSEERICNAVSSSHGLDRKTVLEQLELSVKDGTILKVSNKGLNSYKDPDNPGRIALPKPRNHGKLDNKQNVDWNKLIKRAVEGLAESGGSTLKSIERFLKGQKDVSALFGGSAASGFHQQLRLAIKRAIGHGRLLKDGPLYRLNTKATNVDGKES
Strand | E-score
AATCCTAT | -0.124
ATTGTTCA | -0.0164
ACTCTAAT | -0.144
CTTCGTGA | 0.011
GAGCTAGA | -0.0612
GGAGCCGA | 0.0777
CCCATAGC | -0.135
CACGTTTC | -0.0723
GCGGGAAC | 0.319
AGGGTAAG | -0.138
AACGTGAG | -0.0407
CAATTGAG | -0.013
ATTGCACA | -0.211
CTTGGTTC | -0.0168
ACTTTATC | -0.0951
ATATATCA | 0.0099
TAGCCCTA | -0.135
CAAAGTCA | -0.118
ATTACTAG | 0.0529
CTCAATTC | -0.175
CACCGGTG | 0.0725
CAGTAAAG | -0.085
GGGGGACA | -0.212

Study 2 — method: RNA Bind-n-Seq; form: RNA; medium: in vitro; tested at: 365 nM; baseline: no-protein control; direction: higher = stronger binding
Target: RNA binding protein fox-1 homolog 2, RRM domain, GST-SBP tag (RBFOX2, Homo sapiens, UniProt O43251-10, residues 100-194)
Setting: natural RNA segment, single round, ends assumed
Constant ends, left off below: GGGAGUUCUACAGUCCGACGAUC … UGGAAUUCUCGGGUGCCAA
Residues (chain): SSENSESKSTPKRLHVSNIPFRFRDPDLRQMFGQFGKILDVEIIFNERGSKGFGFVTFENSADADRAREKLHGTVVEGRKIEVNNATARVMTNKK
Strand | RBNS enrichment (R)
AACUCCCAUCUGAGGUGGGUACCACCCCUUCCUCAGUACCCACCGUGGAUACUGCAUGUGAACUAUGGUUUUGAACUCUUCCUCCUCCUCCUUGAGAGCCCCGCCCUGCG | 12.6
AAAGGGUGGUAUUUCUAUUUGUAAAGAAAAGAAAAAUCAAAUGAAAGCAAGAUUUUUUUUUUUUAAAUAUAAGAAGGCUGGGCGUGGUGGCGCACGCCUGUGAUCCUAGC | 0.784
CCCUUUCUGUGCCAGCCUCGAUCGCCUUGUGCUUUGGUCUCUUUUUCUCCCCCCCGCCUGGAUCCUGCCUCGCGCGGGCCGUCCUGUUGCUGAGACUCGGGGUACCGUUC | 0.558
UCAUAGGCAGCAUACGCCUGCUGCCCCAUUGUGGGUGGGGGUGCCCCACUGCGUACUGUGUUUUUAAUUUCAUUUAACUUCUAGCAGACACGCUCAGUGUCUUUGAUAAA | 0.458
UUAAGUAUUUAAAUUAUGAAAGAAUAAUGCAGACUUUUUAUUGUUUCUUAACUGACUAGAAAGAGCCACCAGCAUUACUCUGUGCCUUUUGGACAUCAGUUUGUGUGUUC | 0.44
GCUCUCAGGUGAACGUGGCCGUCAGCGGGGAAACGUGUGUGUCAGUUGGACCAUGUGGGACCCUGAUGGACCUGAAAGACCAGGAUCGGUCCAGCUCAGAUAUUGAGGGC | 0.66
UGUAAUGAACAGACCCGAAGGAAUCCUCCACACACAAGCCAGGGAACACCAACUGGAAAGGUACCCCGUCCCAGGGAAGCCUGCUAGGGAGAGGUUCUGUAGAAUCCGAG | 0.246
GAACUGGAGCUGUGUCGGGGCCAGCACAGCUGAACUGUGACAAUGGCAGGAGGUGGCAUGUGCCCAGCACUUCCAUUAAUCUGAGCCUAGGAGUUGAAUUCUUUGGCAAG | 1.21
AUUACAGGUGUGAGCCACCGUGCCUGGCCUAAAUAAAUAAUUUCGUAAGCAUAUACAAUCCACUUCCCACUAAGAAUUAGGGUCAAAGACAUUCUAUUUGAACACUUGCA | 8.6
GAGGAUUUGGCUGGAAGGGGAUUCUCCGCUGGCACAUGGGAGAAGGCCAUCUUCUGUGUCGGUGCUGUGAUCUGCCUUGUUCUCACUUGCUGAGGAUAAGGGCAUACACG | 0.555
AAUUUUUAUUUCAGCUUUAAAGAUGGGUCAUAUAGCCAAACGGGCCAUAUAAUCCAACAUUGUUGAGAUGUCUUAGGACAUCUAAGGCAAAACUGGCACAUUUGUUCUGC | 0.247
GACACAUUUCGGUCCAGUGUAGCUGUACAUAUGGGGUGUGGACGACCUGUUACUGGACAUGUCUUAUUAAAUGGGUUGCUGUAUUAGGAUUAUAAACAUUUUUCAUUAUU | 0.873

Study 3 — method: DHFR PCA, deep sequencing; medium: yeast; added: (+)-ABA 17 µM; baseline: wild-type fitted maximum; direction: higher = stronger binding
Target: ABI1, truncated, D143A, DHFR fusion (Arabidopsis thaliana)
Setting: methotrexate growth selection, single substitutions
Parent: PYL1, truncated, DHFR fusion (Arabidopsis thaliana); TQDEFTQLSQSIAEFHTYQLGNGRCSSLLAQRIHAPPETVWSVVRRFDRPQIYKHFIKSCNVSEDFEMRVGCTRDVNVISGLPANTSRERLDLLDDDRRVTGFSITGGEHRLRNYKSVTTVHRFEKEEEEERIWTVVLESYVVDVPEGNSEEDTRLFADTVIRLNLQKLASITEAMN
Variant | relative binding score [%]
S171D | 90.3
A84K | 3.81
S9G | 80
G148Q | 51.1
A170V | 20.4
T173H | 21.1
V145G | -5.02
Q167A | 88.3
L112W | 4.31
A175Y | 69.6
K168F | 21
V78L | 89.2
S140F | 2.9
P50F | -9.67
A158C | 104

Study 4 — method: universal PBM; form: double-stranded DNA, one strand shown; medium: in vitro; tested at: not given; direction: higher = stronger binding
Target: Sal-like protein 4, full length isoform B (SALL4, Homo sapiens, UniProt Q9UJQ4-2, residues 1-616)
Setting: 8-mer, flanks averaged, mean of replicates
Target sequence (chain): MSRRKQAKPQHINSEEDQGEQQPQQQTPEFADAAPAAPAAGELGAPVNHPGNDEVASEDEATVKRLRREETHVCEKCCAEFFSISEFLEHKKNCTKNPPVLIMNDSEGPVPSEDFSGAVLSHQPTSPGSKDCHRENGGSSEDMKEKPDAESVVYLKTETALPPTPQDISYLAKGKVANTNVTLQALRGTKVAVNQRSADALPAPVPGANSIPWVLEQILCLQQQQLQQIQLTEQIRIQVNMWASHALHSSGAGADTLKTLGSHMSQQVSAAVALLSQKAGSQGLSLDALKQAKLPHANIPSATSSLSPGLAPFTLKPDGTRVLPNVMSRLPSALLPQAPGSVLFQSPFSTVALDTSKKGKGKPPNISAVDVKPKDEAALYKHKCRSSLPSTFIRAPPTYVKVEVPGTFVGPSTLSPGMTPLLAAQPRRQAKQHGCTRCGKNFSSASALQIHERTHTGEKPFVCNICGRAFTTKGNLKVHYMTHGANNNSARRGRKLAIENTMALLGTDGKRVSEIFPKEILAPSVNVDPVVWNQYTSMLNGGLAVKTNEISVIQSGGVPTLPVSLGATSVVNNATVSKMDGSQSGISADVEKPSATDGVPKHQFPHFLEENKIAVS
Strand | E-score
CCCGCTCC | -0.242
TCAAACGA | 0.0734
CCGCTTTA | 0.122
ACCATTCT | 0.0114
CGGGAAAA | -0.121
ACGCGCCT | -0.0995
ATGGATGA | 0.129
GGCCTTGA | -0.189
CCGATACG | -0.197
GATTTAAA | 0.183
ACTCCGGG | -0.243
AGTAAAAG | 0.205
TAGTAATA | 0.415
CCTAGAAA | -0.0169
CCCCTACC | -0.225
GCGAACTA | -0.0141
ATGCCCCG | -0.264
CAATCTTC | 0.0579
CAAAACAA | 0.108
AACTGCGT | -0.084
AGCATGGG | -0.125
TTCAGAAA | 0.0957
GCTTAGAC | -0.142
AGTCTATG | -0.00455

Study 5 — target: FOSL2, bZIP domain (human); method: DHFR protein complementation; medium: yeast; baseline: wild-type JUN-FOS pair; direction: higher = stronger binding
Setting: single substitutions, most at no-binding floor
Parent: JUN, bZIP domain (human); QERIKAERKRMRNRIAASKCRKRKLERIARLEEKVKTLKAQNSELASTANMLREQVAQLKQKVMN; partner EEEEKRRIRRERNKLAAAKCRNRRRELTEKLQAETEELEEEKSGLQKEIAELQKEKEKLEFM
Variant | binding fitness
L31V | -0.447 natural log
S43F | -0.0182 natural log
L38F | -0.674 natural log
N42D | -1.35 natural log
A40C | -0.072 natural log
V56N | -0.542 natural log
I28L | 0.0468 natural log
A57S | -0.0408 natural log
L59R | -0.946 natural log
L45N | -0.819 natural log
K39M | -0.343 natural log
Q41G | -0.0397 natural log
K36N | 0.0991 natural log
A49P | -1.25 natural log
K36M | 0.157 natural log
S47I | 0.0924 natural log
S43M | 0.0669 natural log
M51R | 0.0921 natural log
Q41M | -0.0225 natural log
A46W | -0.0998 natural log

Study 6 — target: CRIPT, C-terminal peptide; method: DHFR complementation, deep sequencing; medium: yeast; baseline: wild type; direction: higher = weaker binding
Setting: single substitutions, model-inferred values
Parent: ERBIN, PDZ domain 1 (human); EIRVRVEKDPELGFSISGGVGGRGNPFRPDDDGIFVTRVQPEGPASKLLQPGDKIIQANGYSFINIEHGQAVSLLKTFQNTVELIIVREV; partner TKNYKQTSV
Variant | binding free energy change [kcal/mol]
N59K | 0.385
T81I | 0.0976
N25W | 1.11
V4K | 0.92
E11C | -0.543
P29N | 0.0937
I16Y | 1.8
P29W | 0.139
I16N | 0.572
F14H | 1.04
V39N | 1.05
G60Y | 0.245
I64T | 0.0254

Study 7 — target: CCND1, cyclin fold, Cln2 fusion (human); method: yeast growth competition, sequencing; medium: yeast; setting: weak parent motif; baseline: not given; direction: higher = stronger binding
Parent: MICAL3 docking peptide (human); LQLRRQLSFSEDS; partner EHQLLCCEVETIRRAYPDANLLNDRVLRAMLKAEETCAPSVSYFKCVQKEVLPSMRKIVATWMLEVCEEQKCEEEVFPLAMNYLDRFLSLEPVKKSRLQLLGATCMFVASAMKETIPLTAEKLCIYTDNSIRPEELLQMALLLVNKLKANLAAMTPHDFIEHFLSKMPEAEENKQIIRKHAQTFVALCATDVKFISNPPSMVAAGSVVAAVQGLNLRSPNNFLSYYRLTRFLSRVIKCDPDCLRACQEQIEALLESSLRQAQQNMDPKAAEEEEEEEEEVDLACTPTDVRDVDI
Variant | normalised enrichment score
LQLRRQLSFVEDS [S10V] | -0.0396
LQLRRQLSFNEDS [S10N] | 0.359
LQLRRQLSCSEDS [F9C] | -0.0048
LQLRVQLSFSEDS [R5V] | 0.156
LQWRRQLSFSEDS [L3W] | -0.121
LMLRRQLSFSEDS [Q2M] | 0.405
LQLRRQLSFSETS [D12T] | 0.329
LQLRRQLSTSEDS [F9T] | -0.0196
LFLRRQLSFSEDS [Q2F] | 0.337
LQLRRQLSFSDDS [E11D] | 0.706
LQLRRQLSFSKDS [E11K] | 0.268
LQLRRDLSFSEDS [Q6D] | -0.155
LQLRRQPSFSEDS [L7P] | 0.204
LQLRRQQSFSEDS [L7Q] | -0.089
LVLRRQLSFSEDS [Q2V] | 0.586
LQLRRQLSFSELS [D12L] | 0.79
LQLRRQMSFSEDS [L7M] | 0.224
LQFRRQLSFSEDS [L3F] | 0.169

Other studies, line by line
Molecule | target | test | system | setting | scale | quantity | result
PhoQ, residues 284 288 289 292 302 303 ALVSVA | PhoP, residues 12 14 15 18 19 LHHVQ (Escherichia coli, UniProt P23836) | Sort-seq, item: YFP reporter | E. coli | PhoQ-PhoP variant library, added: 10 µM Mg2+ | baseline: high Mg2+ state, higher = stronger signaling | fold induction | 19.7

For quick reference, copied from above (study 6):
Variant | binding free energy change [kcal/mol]
N25W | 1.11
V4K | 0.92
E11C | -0.543
P29N | 0.0937
I16Y | 1.8
P29W | 0.139
I16N | 0.572
F14H | 1.04
V39N | 1.05
G60Y | 0.245
I64T | 0.0254
